# Assay results gathered from unrelated publications.
# Parts stem from different laboratories: compare values within a part only.
# UniProt P29597, sequence (whole entry, looked up): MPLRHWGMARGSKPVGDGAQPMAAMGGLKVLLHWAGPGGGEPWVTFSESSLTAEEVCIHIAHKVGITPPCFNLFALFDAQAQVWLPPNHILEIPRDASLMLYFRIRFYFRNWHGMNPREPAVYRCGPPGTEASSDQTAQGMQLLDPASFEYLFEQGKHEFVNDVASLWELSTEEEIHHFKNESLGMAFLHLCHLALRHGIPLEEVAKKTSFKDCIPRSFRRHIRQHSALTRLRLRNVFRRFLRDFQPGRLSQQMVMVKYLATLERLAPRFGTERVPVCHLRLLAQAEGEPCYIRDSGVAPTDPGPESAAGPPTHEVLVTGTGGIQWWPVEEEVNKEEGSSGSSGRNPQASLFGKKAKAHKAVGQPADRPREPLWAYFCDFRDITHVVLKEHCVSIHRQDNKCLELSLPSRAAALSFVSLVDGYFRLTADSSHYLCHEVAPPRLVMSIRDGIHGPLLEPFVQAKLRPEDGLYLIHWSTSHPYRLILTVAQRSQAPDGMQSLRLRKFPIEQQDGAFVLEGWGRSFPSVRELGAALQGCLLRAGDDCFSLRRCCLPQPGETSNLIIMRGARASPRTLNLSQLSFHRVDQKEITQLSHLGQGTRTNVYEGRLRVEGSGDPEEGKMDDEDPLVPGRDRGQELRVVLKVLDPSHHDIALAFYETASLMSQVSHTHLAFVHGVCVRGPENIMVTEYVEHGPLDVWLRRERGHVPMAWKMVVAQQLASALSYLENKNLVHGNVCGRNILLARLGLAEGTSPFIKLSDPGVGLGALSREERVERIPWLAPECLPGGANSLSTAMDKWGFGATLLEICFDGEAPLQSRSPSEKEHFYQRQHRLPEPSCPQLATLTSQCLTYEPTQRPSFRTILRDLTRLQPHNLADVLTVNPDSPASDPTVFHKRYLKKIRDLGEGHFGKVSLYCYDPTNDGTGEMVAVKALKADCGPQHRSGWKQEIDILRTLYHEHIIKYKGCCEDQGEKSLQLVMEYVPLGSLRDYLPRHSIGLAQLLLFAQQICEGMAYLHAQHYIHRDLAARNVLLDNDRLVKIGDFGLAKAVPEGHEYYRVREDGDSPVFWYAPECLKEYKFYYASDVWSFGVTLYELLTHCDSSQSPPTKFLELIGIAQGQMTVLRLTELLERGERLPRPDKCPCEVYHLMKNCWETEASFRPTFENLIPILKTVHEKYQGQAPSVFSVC
# UniProt Q15349, sequence (whole entry, looked up): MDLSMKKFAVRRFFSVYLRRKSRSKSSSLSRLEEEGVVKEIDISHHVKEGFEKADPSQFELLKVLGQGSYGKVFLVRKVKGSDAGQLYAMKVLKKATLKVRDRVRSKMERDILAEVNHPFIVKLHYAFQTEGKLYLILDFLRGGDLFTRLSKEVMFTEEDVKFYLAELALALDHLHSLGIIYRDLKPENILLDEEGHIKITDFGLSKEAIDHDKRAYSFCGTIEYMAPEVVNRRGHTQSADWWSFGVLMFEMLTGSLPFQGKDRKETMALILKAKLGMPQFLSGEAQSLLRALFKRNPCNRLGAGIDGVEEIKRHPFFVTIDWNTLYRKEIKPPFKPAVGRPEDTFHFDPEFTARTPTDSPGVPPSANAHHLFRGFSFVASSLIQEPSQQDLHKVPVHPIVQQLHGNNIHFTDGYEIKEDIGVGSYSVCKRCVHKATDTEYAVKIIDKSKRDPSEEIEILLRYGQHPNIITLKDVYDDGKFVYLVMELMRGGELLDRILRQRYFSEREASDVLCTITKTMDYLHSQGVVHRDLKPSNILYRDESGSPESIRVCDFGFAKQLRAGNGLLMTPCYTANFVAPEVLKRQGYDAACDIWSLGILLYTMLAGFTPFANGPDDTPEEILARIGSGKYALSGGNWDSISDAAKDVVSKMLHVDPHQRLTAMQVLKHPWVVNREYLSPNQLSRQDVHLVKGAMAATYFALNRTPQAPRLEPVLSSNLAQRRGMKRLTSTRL
# UniProt Q04912, sequence (whole entry, looked up): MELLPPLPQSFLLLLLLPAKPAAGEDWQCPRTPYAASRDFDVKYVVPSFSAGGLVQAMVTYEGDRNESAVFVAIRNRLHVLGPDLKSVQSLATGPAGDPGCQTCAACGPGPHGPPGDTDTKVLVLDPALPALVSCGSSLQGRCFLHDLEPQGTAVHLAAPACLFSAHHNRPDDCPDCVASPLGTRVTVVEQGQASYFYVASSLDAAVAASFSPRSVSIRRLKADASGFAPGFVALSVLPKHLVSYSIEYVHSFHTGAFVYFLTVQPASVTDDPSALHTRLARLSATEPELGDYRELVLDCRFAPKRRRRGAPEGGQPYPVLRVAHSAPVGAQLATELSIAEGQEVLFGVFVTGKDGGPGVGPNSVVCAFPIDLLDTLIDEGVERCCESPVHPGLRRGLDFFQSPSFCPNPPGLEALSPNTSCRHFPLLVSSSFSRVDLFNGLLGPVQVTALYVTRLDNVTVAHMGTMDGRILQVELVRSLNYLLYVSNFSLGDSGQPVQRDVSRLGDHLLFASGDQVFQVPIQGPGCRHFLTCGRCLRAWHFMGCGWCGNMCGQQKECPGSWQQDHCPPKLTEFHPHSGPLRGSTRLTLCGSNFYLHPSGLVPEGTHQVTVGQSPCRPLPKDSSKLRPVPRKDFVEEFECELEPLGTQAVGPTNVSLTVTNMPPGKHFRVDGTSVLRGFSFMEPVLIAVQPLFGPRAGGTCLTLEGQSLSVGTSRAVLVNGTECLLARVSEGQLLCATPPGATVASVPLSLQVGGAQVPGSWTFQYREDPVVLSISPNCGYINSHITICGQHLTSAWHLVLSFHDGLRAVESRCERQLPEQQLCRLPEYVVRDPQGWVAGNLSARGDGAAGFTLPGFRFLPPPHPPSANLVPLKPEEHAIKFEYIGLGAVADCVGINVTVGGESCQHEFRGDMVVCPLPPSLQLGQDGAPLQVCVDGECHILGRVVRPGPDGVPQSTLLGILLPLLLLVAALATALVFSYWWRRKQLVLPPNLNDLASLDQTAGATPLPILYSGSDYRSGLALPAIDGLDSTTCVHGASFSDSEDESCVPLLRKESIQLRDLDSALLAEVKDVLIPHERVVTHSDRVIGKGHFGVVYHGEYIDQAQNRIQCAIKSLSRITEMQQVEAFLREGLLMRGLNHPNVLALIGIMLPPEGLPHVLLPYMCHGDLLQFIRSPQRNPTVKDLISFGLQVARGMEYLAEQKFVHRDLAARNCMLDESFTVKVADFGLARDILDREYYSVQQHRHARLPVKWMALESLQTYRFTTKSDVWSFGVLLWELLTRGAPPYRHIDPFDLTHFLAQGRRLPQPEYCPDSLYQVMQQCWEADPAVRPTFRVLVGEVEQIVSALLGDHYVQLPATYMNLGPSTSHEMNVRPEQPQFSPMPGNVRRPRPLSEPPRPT
# UniProt Q02763, sequence (whole entry, looked up): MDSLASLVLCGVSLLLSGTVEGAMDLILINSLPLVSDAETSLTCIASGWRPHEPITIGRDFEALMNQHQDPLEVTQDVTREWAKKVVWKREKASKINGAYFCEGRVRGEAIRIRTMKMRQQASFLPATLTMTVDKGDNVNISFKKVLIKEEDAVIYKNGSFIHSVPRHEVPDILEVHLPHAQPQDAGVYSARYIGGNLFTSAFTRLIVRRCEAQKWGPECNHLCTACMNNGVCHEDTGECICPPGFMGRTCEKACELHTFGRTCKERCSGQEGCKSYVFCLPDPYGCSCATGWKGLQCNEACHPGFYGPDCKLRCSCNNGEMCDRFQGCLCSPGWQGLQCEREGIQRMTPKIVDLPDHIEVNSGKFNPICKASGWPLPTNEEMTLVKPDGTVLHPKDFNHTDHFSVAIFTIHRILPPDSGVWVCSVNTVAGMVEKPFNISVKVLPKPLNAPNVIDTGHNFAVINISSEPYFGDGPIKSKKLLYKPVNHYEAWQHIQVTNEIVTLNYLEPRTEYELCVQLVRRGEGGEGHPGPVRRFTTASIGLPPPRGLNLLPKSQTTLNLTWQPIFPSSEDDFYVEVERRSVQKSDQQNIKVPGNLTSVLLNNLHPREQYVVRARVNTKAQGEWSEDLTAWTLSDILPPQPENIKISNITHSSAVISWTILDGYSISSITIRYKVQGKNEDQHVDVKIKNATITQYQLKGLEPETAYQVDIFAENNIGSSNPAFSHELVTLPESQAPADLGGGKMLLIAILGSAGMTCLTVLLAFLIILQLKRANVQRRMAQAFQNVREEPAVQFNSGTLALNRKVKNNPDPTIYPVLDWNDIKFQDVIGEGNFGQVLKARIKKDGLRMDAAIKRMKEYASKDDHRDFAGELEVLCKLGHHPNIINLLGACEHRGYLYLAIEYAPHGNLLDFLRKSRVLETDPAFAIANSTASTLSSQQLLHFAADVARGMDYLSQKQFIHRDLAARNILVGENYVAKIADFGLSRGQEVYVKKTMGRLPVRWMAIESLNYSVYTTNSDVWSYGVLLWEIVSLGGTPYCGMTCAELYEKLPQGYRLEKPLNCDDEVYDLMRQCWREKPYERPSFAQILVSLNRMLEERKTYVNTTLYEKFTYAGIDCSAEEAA

# Block 1 — observed: enzyme activity; action: inhibitor; concentration: 0.5 µM; reference: control
# Target: Activin receptor type-1-like (ACVRL1, Homo sapiens, UniProt P37023)
# UniProt P37023, sequence (whole entry, looked up): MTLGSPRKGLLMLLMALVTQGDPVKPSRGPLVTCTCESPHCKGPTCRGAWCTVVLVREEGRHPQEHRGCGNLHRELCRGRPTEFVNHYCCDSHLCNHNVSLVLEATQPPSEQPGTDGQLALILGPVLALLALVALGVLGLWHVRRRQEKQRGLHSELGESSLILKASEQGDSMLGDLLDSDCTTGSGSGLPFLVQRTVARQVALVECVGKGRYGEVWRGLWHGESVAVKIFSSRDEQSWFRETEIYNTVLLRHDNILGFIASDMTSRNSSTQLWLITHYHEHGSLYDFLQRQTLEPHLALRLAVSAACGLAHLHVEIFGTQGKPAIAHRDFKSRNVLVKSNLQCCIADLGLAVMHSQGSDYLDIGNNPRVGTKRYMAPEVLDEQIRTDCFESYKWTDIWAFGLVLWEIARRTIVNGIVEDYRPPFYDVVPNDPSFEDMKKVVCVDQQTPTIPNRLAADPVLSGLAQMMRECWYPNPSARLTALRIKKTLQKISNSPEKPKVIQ
Compound,remaining activity [%]
c1ccc(-c2cnc(Nc3ccc(OCCN4CCCC4)cc3)s2)cc1,108
Cn1nc2c3c(cccc31)C(=O)c1ccccc1-2,102
O=c1cc(-c2cccc3c2Sc2ccccc2S3)oc(N2CCOCC2)c1,99.9
CN(C)C[C@H]1CCn2c(c(C3=C(c4cn(C)c5ccccc45)C(=O)NC3=O)c3ccccc32)C1,98.5
O=C1C(Cl)=C(N2C(=O)CCC2=O)C(=O)c2ccccc21,105
CCN(CC)CCNC(=O)c1c(C)[nH]c(/C=C2\C(=O)Nc3ccc(Cl)cc32)c1C,89
Cc1cc2ncc(-c3ccccc3)nc2cc1C,97.9
Ic1cccc(CSc2nnc(-c3ccncc3)o2)c1,103
COc1cc2ncnc(Nc3ccc(O)c(Br)c3)c2cc1OC,102
Cc1nc2cc3nc(-c4cccs4)cnc3cc2n1C,109
c1ccc(-c2[nH]ncc2-c2ccnc3ccccc23)nc1,102
CN([C@@H](Cc1ccc(OS(=O)(=O)c2cccc3cnccc23)cc1)C(=O)N1CCN(c2ccccc2)CC1)S(=O)(=O)c1cccc2cnccc12,103
O=C(NC(NC(=S)Nc1ccc(F)c([N+](=O)[O-])c1)C(Cl)(Cl)Cl)C(c1ccccc1)c1ccccc1 (stereo not drawn),107
N#C/C(=C\c1ccc(O)c(O)c1)C(=O)NCc1ccccc1,106
N#Cc1c(NC(=O)c2cccc3ccccc23)sc2c1CCCC2,107
C[C@@H]1CCN(C(=O)CC#N)C[C@@H]1N(C)c1ncnc2[nH]ccc12,100
COc1cc2c(cc1OC)-c1[nH]nc(Nc3cccc(F)c3)c1C2,102
O=C1c2ccccc2-c2n[nH]c3cccc1c23,112
CCOc1nc(NC(=O)Cc2cc(OC)ccc2OC)cc(N)c1C#N,107
COc1cc2ncnc(Nc3cccc(Cl)c3)c2cc1OC,96.4
O=C(Nc1cccc(Nc2nccc(Nc3cccc(C(F)(F)F)c3)n2)c1)C1CC1,84.6
Cc1cn(-c2cc(NC(=O)c3ccc(C)c(Nc4nccc(-c5cccnc5)n4)c3)cc(C(F)(F)F)c2)cn1,116
CCN(CC)C(=O)c1ccc(Nc2nc(OCC3CCCCC3)c3[nH]cnc3n2)cc1,106
Nc1cccc(-c2cc3c(Oc4cccc(O)c4)ncnc3[nH]2)c1,70.3

# Block 2 — organism: Sarcocystis neurona; observed: parasite growth; concentration: 10 µM
Structure (SMILES),inhibition [%]
Cc1cccc(CN2CCN(C(c3ccccc3)c3ccc(Cl)cc3)CC2)c1.Cl.Cl (stereo not drawn),-20
CCCCNc1cc(C(=O)O)cc(S(N)(=O)=O)c1Oc1ccccc1,-24.9
CCOC(=O)C1=C(C)NC(C)=C(C(=O)OCC)C1c1ccccc1/C=C/C(=O)OC(C)(C)C,28.1
CCCCc1oc2ccccc2c1C(=O)c1cc(I)c(OCCN(CC)CC)c(I)c1,6.1
OC(c1cc(C(F)(F)F)nc2c(C(F)(F)F)cccc12)C1CCCCN1 (stereo not drawn),13.8
Oc1c(Cl)cc(Cl)c2cccnc12,96.3
CC(C)(C(=O)c1cccnc1)c1cccnc1,-31.3
Cc1nccn1CC1CCc2c(c3ccccc3n2C)C1=O (stereo not drawn),-28.5
O=c1[nH]c(=O)n([C@H]2C[C@H](O)[C@@H](CO)O2)cc1F,42.7
CO/N=C(\C(=O)N[C@@H]1C(=O)N2C(C(=O)O)=C(COC(N)=O)CS[C@H]12)c1ccco1,-19.6
COc1ccc(CN2CCN(C(c3ccc(F)cc3)c3ccc(F)cc3)CC2)c(OC)c1OC.Cl.Cl,34.3

# Block 3 — concentration: 1 µM; reference: DMSO control
# Cell line: patient-derived normal-adjacent epithelium organoids
SMILES,viability [%]
CC(=O)N1CCC(c2ccc(C(=O)NC(=N)N)cc2C(F)(F)F)CC1,113
c1ccc(N2CCN(Cc3nc4ccccc4[nH]3)CC2)nc1,116
CCNC(=O)c1cc2c(N3CCOC[C@@H]3C)ccnc2[nH]1,114
C[C@H](NC(=O)Nc1cc2[nH]ncc2c(CO)n1)c1ccccn1,91
CN1CCN(Cc2ccc(Nc3ncc(Cl)c(Nc4ccccc4S(=O)(=O)N(C)C)n3)cc2)CC1,0.9
Cc1noc([C@H]2C[C@@H](c3ccc(C(F)(F)F)cc3)CN(C(=O)N3CCS(=O)(=O)C3)C2)n1,112
COc1cc(-c2cn(C3CCc4ccccc4N(CC(F)(F)F)C3=O)nn2)ccc1-n1ccc(C)n1 (stereo not drawn),83.4
O=C(N1CCS(=O)(=O)CC1)N1C[C@H](c2ccc(OC(F)(F)F)cc2)C[C@H](c2nc(C3CC3)no2)C1,106
CC(=O)c1c(NS(C)(=O)=O)c2cc(-c3ccc(Cl)cc3)c(-c3ccc(Cl)cc3Cl)nc2n(C)c1=O,94
COc1cc(-c2cn(C3CCc4c(F)cccc4N(CC(F)(F)F)C3=O)nn2)ccc1-n1cnc(C)c1 (stereo not drawn),106
CN([C@@H]1CCc2c(CC(=O)O)c3ccccc3n2C1)S(=O)(=O)c1ccc(F)cc1,129
CC(=O)Nc1c(C(C)=O)c(=O)n(C)c2nc(-c3ccc(Cl)cc3Cl)c(-c3ccc(Cl)cc3)cc12,107
C[C@@H](NC(=O)Nc1cc2[nH]ncc2c(CO)n1)c1ccccc1,94.9
O=C1NC(c2ccccn2)Sc2ccccc21 (stereo not drawn),107
CC(=O)N1CCC(c2ccc(C(=O)NC3=NCCN3)cc2C(F)(F)F)CC1,93.9
O=c1nc(-c2ccccn2)sc2ccccc12,128
CC1=C(C#N)C(c2ccc3[nH]nc(C)c3c2)C(C#N)=C(C)N1,107
Cc1nc(N2CC[C@@H](O)C2)ncc1-c1cc(C(F)(F)F)cc2[nH]ncc12,99.6
Cc1cn(-c2cc(NC(=O)c3ccc4c(c3)CN(c3cncnc3)C[C@@H]4C)cc(C(F)(F)F)c2)cn1,77.6

# Block 4 — concentration: 1 µM
# SMILES: CN1CCN(C(=O)c2ccc(NC(=O)Nc3ccc(N(C)c4ccnc(Nc5ccc(CS(C)(=O)=O)cc5)n4)cc3)cc2)CC1
target,observed,method,remaining binding [%]
"TEK (Homo sapiens, UniProt Q02763)",binding,competition with immobilised ligand,41
"MST1R (Homo sapiens, UniProt Q04912)",binding,,41
"Ribosomal protein S6 kinase alpha-2, N-terminal kinase domain (RPS6KA2, Homo sapiens, UniProt Q15349)",binding,competition with immobilised ligand,84
"TIE1 (Homo sapiens, UniProt P35590)",binding,competition with immobilised ligand,8.3
"EPHB4 (Homo sapiens, UniProt P54760)",binding,competition with immobilised ligand,85
"ERBB2 (Homo sapiens, UniProt P04626)",binding,competition with immobilised ligand,100
"ERN1 (Homo sapiens, UniProt O75460)",binding,,25
"Non-receptor tyrosine-protein kinase TYK2, JH2 (TYK2, Homo sapiens, UniProt P29597)",binding,competition with immobilised ligand,6.5
"NEK6 (Homo sapiens, UniProt Q9HC98)",binding,,100
"MATK (Homo sapiens, UniProt P42679)",binding,,100
"Tyrosine-protein kinase JAK1, JH1 (JAK1, Homo sapiens, UniProt P23458)",cell-free assay,competition with immobilised ligand,76
"Ribosomal protein S6 kinase alpha-6, C-terminal kinase domain (RPS6KA6, Homo sapiens, UniProt Q9UK32)",binding,competition with immobilised ligand,84
"SRC (Homo sapiens, UniProt P12931)",binding,competition with immobilised ligand,100
"CHEK1 (Homo sapiens, UniProt O14757)",binding,,100
"DMPK (Homo sapiens, UniProt Q09013)",binding,competition with immobilised ligand,100
